Measured values pooled from the literature.
± gives the spread as reported.

SMILES = CC[C@H](C)[C@H](NC(=O)[C@H](CCCCN)NC(=O)CNC(=O)[C@H](CC(C)C)NC(=O)[C@H](Cc1ccccc1)NC(=O)[C@H](CCCCN)NC(=O)[C@H](CO)NC(=O)[C@H](Cc1ccccc1)NC(=O)[C@H](Cc1c[nH]c2ccccc12)NC(=O)[C@H](CCC(N)=O)NC(=O)[C@@H](NC(=O)[C@H](Cc1ccccc1)NC(=O)CCCCCNC(=O)CN1CCN(CC(=O)O)CCN(CC(=O)O)CCN(CC(=O)O)CC1)C(C)C)C(=O)N[C@@H](CCC(=O)O)C(=O)N1CCC[C@H]1C(=O)N[C@@H](CC(=O)O)C(=O)N[C@H](C(=O)N[C@@H](CO)C(=O)N[C@@H](CCC(N)=O)C(=O)N[C@H](C(=O)N[C@@H](CCC(N)=O)C(=O)N[C@@H](CC(=O)O)C(=O)N1CCC[C@H]1C(=O)N[C@@H](CC(N)=O)C(=O)N[C@@H](CC(=O)O)C(=O)N[C@@H](CCC(N)=O)C(=O)N[C@@H](Cc1ccc(O)cc1)C(=O)N[C@@H](CCC(=O)O)C(=O)N1CCC[C@H]1C(=O)N[C@@H](Cc1ccccc1)C(=O)O)C(C)C)C(C)C [copper-64 labelled]; assay = dynamic PET; test system = mouse, CT26 tumour, untreated, tumour; setting = intravenous, 100 µCi/mouse, 2220 s; endpoint = SUVmean; result = 1.2 SUV
SMILES = CC[C@H](C)[C@H](NC(=O)[C@H](CCCNC(=N)N)NC(=O)[C@H](CCCNC(=N)N)NC(=O)[C@H](CC(C)C)NC(=O)[C@H](Cc1c[nH]c2ccccc12)NC(=O)[C@H](CCCCN)NC(=O)[C@H](CCCNC(=N)N)NC(=O)[C@H](CCCCN)NC(=O)[C@H](CCCNC(=N)N)NC(=O)[C@H](CCCNC(=N)N)NC(=O)CN)C(=O)NCC(=O)N[C@@H](CCCCN)C(=O)NCC(=O)N[C@H](C(=O)N[C@@H](CCCCN)C(=O)N[C@H](C(=O)N[C@H](C(=O)NCC(=O)NCC(=O)N[C@@H](C)C(=O)N[C@@H](C)C(=O)N[C@@H](CC(C)C)C(=O)N[C@@H](CC(=O)O)C(=O)N[C@@H](Cc1c[nH]cn1)C(=O)N[C@@H](CC(C)C)C(N)=O)[C@@H](C)CC)[C@@H](C)CC)C(C)C; test system = zebrafish embryos 4 hpf, E3 medium; setting = 1 h; endpoint = acute toxic concentration; result = 5 µM
SMILES = CN[C@H](CC(C)C)C(=O)N[C@H]1C(=O)N[C@@H](CC(N)=O)C(=O)N[C@H]2C(=O)N[C@H]3C(=O)N[C@H](C(=O)N[C@H](C(=O)O)c4cc(O)cc(O)c4-c4cc3ccc4O)[C@H](O)c3ccc(c(Cl)c3)Oc3cc2cc(c3O[C@@H]2O[C@H](CO)[C@@H](O)[C@H](O)[C@H]2O[C@H]2C[C@](C)(NCc3ccc(-c4ccc(Cl)cc4)cc3)[C@H](O)[C@H](C)O2)Oc2ccc(cc2Cl)[C@H]1O; test system = mouse, plasma; setting = intravenous, 75 mg/kg; endpoint = Tmax; result = 15 min
SMILES = CC(C)[C@H](NC(=O)[C@@H](NC(=O)[C@H](CCCNC(=N)N)NC(=O)[C@H](CCCNC(=N)N)NC(=O)[C@H](CCCNC(=N)N)NC(=O)[C@H](CCC(N)=O)NC(=O)[C@H](CCCNC(=N)N)NC(=O)[C@H](CCCNC(=N)N)NC(=O)[C@H](CCCCN)NC(=O)[C@H](CCCCN)NC(=O)[C@H](CCCNC(=N)N)NC(=O)CN)[C@@H](C)O)C(=O)N[C@H](C(=O)N[C@@H](CO)C(=O)N1CCC[C@H]1C(=O)O)[C@@H](C)O; test system = ICR mouse, female, left kidney; setting = intranasal, 20 mg/kg daily, 4 weeks; endpoint = kidney weight; result = 0.209 ± 0.031 g
SMILES = CC(=O)NCCCC[C@@H]1NC(=O)[C@H](Cc2c[nH]c3c(C)cccc23)NC(=O)[C@H]([C@@H](C)O)NC(=O)[C@H](CC(N)=O)NC(=O)[C@@H](NC(C)=O)C(C)(C)SSC(C)(C)[C@@H](C(=O)N[C@@H](Cc2ccc(OCCN)cc2)C(=O)N[C@@H](Cc2ccc3ccccc3c2)C(=O)NC2(C(=O)N[C@@H](CCC(=O)O)C(=O)N[C@@H](CC(N)=O)C(=O)N[C@@H](Cc3cccnc3)C(=O)N(C)CC(N)=O)CCOCC2)NC1=O; test system = human; setting = oral, 25 mg multiple doses, day 10; endpoint = apparent clearance CL/F; result = 5210 ± 1830 L/h
SMILES = C=Cc1c(C)c2cc3nc(c(CC(=O)[O-])c4[n-]c(cc5nc(cc1[n-]2)C(C)=C5CC)c(C)c4C(=O)[O-])C(CCC(=O)[O-])C3C.[Cu+2].[Na+].[Na+].[Na+] (stereo not drawn); test system = Wistar rat, male; setting = oral, 500 mg/kg daily, 28 days; endpoint = serum ALT; result = 45.7 ± 8.55 U/L
SMILES = O=C1NC2(CC2)COc2ncc(F)cc2[C@H]2COCCN2c2ccn3ncc1c3n2; test system = Sprague-Dawley rat, male, liver; setting = oral, 5 mg/kg/day, 4 weeks, end of treatment; endpoint = organ-to-brain weight ratio; result = 635 ± 72.5%
SMILES = CN1Cc2cc(Cl)ccc2-n2c(nnc2C2CCN(c3cccc([18F])n3)CC2)C1; assay = PET two-tissue compartment model; test system = rhesus monkey, amygdala; setting = intravenous, dose not given, 90 min scan, baseline scan; endpoint = total volume of distribution; result = 1.21 ± 0.39 mL/cm3
SMILES = Cc1ccc(N2CC3CN(C)CC3C2)cc1C(=O)N[C@H](C)c1cc(-c2cnn(C)c2)nc2ccccc12 (stereo partly drawn); tested on = African green monkey cells; setting = 250 µM; endpoint = viability; result = 12.9%
SMILES = CCCC[C@H]1C(=O)N(C)[C@@H](CCCC)C(=O)N[C@@H](CCCNC(=O)CN2CCN(CC(=O)O)CCN(CC(=O)O)CCN(CC(=O)O)CC2)C(=O)N[C@H](C(=O)NCC(N)=O)CSCC(=O)N[C@@H](Cc2ccc(O)cc2)C(=O)N(C)[C@@H](C)C(=O)N[C@@H](CC(N)=O)C(=O)N2CCC[C@H]2C(=O)N[C@@H](Cc2c[nH]cn2)C(=O)N[C@@H](CC(C)C)C(=O)N(C)CC(=O)N[C@@H](Cc2c[nH]c3ccccc23)C(=O)N[C@@H](CO)C(=O)N[C@@H](Cc2c[nH]c3ccccc23)C(=O)N1C [gallium-68 labelled]; test system = NOD/SCID mice with CHO-hPD-L1 xenograft, heart; setting = 30 min post injection; endpoint = tissue uptake; result = 2.45 ± 0.16 %ID/g
SMILES = N#[11C]c1ccc(-c2csc(NN=C3CCCC3)n2)cc1; test system = C57BL/6 mice, male, spleen; setting = intravenous, 3 MBq, 5 min; endpoint = radioactivity uptake; result = 3.1 ± 0.37 %ID/g
SMILES = CSCC[C@H](N)C(=O)N[C@@H](C)C(=O)N[C@@H](CCCNC(=N)N)C(=O)N[C@@H](CCCNC(=N)N)C(=O)N[C@@H](CC(=O)O)C(=O)N[C@@H](CCCCN)C(=O)N[C@H](C(=O)N[C@@H](CC(=O)O)C(=O)N[C@@H](Cc1ccccc1)C(=O)N[C@@H](C)C(=O)N[C@@H](CCCNC(=N)N)C(=O)N[C@@H](CCCNC(=N)N)C(=O)N[C@@H](CCCNC(=N)N)C(=O)N[C@@H](CCCNC(=N)N)C(=O)NCCCCCC(=O)NCCCCC(NC(=O)CCCCCNC(=O)[C@H](CCCNC(=N)N)NC(=O)[C@H](CCCNC(=N)N)NC(=O)[C@H](CCCNC(=N)N)NC(=O)[C@H](CCCNC(=N)N)NC(=O)[C@H](C)NC(=O)[C@H](Cc1ccccc1)NC(=O)[C@H](CC(=O)O)NC(=O)[C@@H](NC(=O)[C@H](CCCCN)NC(=O)[C@H](CC(=O)O)NC(=O)[C@H](CCCNC(=N)N)NC(=O)[C@H](CCCNC(=N)N)NC(=O)[C@H](C)NC(=O)[C@@H](N)CCSC)[C@@H](C)O)C(=O)NCCCCC(NC(=O)C(CCCCNC(=O)CCCCCNC(=O)[C@H](CCCNC(=N)N)NC(=O)[C@H](CCCNC(=N)N)NC(=O)[C@H](CCCNC(=N)N)NC(=O)[C@H](CCCNC(=N)N)NC(=O)[C@H](C)NC(=O)[C@H](Cc1ccccc1)NC(=O)[C@H](CC(=O)O)NC(=O)[C@@H](NC(=O)[C@H](CCCCN)NC(=O)[C@H](CC(=O)O)NC(=O)[C@H](CCCNC(=N)N)NC(=O)[C@H](CCCNC(=N)N)NC(=O)[C@H](C)NC(=O)[C@@H](N)CCSC)[C@@H](C)O)NC(=O)CCCCCNC(=O)[C@H](CCCNC(=N)N)NC(=O)[C@H](CCCNC(=N)N)NC(=O)[C@H](CCCNC(=N)N)NC(=O)[C@H](CCCNC(=N)N)NC(=O)[C@H](C)NC(=O)[C@H](Cc1ccccc1)NC(=O)[C@H](CC(=O)O)NC(=O)[C@@H](NC(=O)[C@H](CCCCN)NC(=O)[C@H](CC(=O)O)NC(=O)[C@H](CCCNC(=N)N)NC(=O)[C@H](CCCNC(=N)N)NC(=O)[C@H](C)NC(=O)[C@@H](N)CCSC)[C@@H](C)O)C(N)=O)[C@@H](C)O (stereo partly drawn); test system = C57BL/6 mouse female, liver; setting = dose not given, 3 h; how to read = relative to: total; endpoint = mean tissue distribution; result = 8.18%
SMILES = CCN(CCCCOc1ccc(CCC(=O)N2CCC(Cc3ccccc3)CC2)cc1OC)Cc1ccccc1; test system = Sprague-Dawley rats, both sexes, urine; setting = oral gavage, 25 mg/kg, 0 to 6 h; how to read = relative to: dose; endpoint = excretion rate; result = 0.0322 ± 0.005%
SMILES = Cc1ccc(N2C[C@@H]3C[C@H]2CN3C)cc1C(=O)N[C@H](C)c1cc(-c2cnn(C)c2)nc2ccccc12; tested on = African green monkey cells; setting = 31.25 µM; endpoint = viability; result = 107%
SMILES = CC(C)=CCC/C(C)=C/CCn1cc(CC(P(=O)(O)O)P(=O)(O)O)nn1; test system = CD-1 mouse, plasma; setting = intravenous, 0.5 mg/kg, single dose; endpoint = Vd; result = 37.6 L/kg
